Published values gathered from unrelated publications.
Every numbered part comes from another study and shows a few of its results, in no order.

Sample 1
Target: Interferon regulatory factor 7, full length, phosphomimetic (IRF7, Homo sapiens, UniProt Q92985, residues 1-503, S101K/S471D/S472D/S475D/S476D/S477D/S483D/S484D/S487D)
Sequence of UniProt Q92985 (whole entry, unmodified, looked up): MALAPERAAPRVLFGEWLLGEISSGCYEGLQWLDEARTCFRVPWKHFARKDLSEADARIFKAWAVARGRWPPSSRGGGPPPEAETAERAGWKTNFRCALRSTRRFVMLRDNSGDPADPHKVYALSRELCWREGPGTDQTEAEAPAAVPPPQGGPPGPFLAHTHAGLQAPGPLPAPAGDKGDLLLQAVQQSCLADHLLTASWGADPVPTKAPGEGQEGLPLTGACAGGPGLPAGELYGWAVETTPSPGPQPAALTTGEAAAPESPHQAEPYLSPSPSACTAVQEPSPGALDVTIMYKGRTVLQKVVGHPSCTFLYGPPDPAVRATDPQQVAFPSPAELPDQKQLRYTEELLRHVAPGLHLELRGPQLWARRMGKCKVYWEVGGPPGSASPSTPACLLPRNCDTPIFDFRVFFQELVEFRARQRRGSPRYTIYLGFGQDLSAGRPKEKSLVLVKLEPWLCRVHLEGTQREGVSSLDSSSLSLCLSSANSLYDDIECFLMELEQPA
Technique: protein-binding microarray
Molecule type: double-stranded DNA, one strand shown
Matrix: in vitro
Tested at: 250 nM
Setting: 60-bp whole probe
With: salmon DNA 0.4 mg/ml
Baseline: random background probes
Direction: higher = stronger binding
Quantity: log fluorescence
GCCTAGCACTCATTATTAAAACTTCATACTGTGCTAGTCTTGATTCGCTTGACGCTGCTG: 0.941 z-score
GCCTAGCACTTACAGCTATTTTTAGGATGGTGCTAGGTCTTGATTCGCTTGACGCTGCTG: -0.386 z-score
GCCTAGCACGACGGTATCCTACTGCTGAGGTGCTAGGTCTTGATTCGCTTGACGCTGCTG: 0.00891 z-score

Sample 2
Target: PABPC1L2, full length, GST fusion (mouse, UniProt A0ABA7IW68)
Technique: RNAcompete
Molecule type: RNA
Matrix: in vitro
Tested at: 20 nM
Setting: 7-mer, probes averaged, single round
Baseline: mean of 7-mers
Direction: higher = stronger binding
Quantity: 7-mer Z-score
Construct (chain): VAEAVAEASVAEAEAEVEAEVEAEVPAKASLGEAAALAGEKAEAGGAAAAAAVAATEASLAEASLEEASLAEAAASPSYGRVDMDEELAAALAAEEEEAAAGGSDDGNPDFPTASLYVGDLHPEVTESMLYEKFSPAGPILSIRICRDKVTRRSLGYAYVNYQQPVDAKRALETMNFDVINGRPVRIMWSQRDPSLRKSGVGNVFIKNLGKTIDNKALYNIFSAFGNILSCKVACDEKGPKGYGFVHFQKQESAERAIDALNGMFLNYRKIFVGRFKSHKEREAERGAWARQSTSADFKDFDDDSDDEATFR
AGCCCGU: -0.364
CCGACUA: -0.228
UAUUACC: -0.226

Sample 3
Target: Histone acetyltransferase KAT6A, winged helix 2, GST fusion (KAT6A, Homo sapiens, UniProt Q92794, residues 85-181)
Technique: protein binding microarray
Molecule type: double-stranded DNA, one strand shown
Matrix: in vitro
Tested at: not given
Setting: 8-mer, flanks averaged, mean of 2 arrays, mostly near background
Baseline: not given
Direction: higher = stronger binding
Quantity: E-score
Construct (chain): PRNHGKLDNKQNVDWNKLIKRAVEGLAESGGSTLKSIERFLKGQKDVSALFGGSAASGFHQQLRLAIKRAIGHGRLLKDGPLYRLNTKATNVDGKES
GGTAGCGA: -0.0652
CGATACAC: -0.0956
CCGAACTA: -0.0508

Further values, each from its own experiment
PhoQ, residues 284 288 289 292 302 303 AGCYAI
fold induction (PhoP, residues 12 14 15 18 19 LHSVQ (Escherichia coli, UniProt P23836); Sort-seq, item: YFP reporter; E. coli; PhoQ-PhoP variant library, with: 10 µM Mg2+; baseline: high Mg2+ state, higher = stronger signaling): 1.09

Repeated from above (further values, each from its own experiment):
PhoQ, residues 284 288 289 292 302 303 AGCYAI
fold induction (PhoP, residues 12 14 15 18 19 LHSVQ (Escherichia coli, UniProt P23836); Sort-seq, item: YFP reporter; E. coli; PhoQ-PhoP variant library, with: 10 µM Mg2+; baseline: high Mg2+ state, higher = stronger signaling): 1.09
